Experimental data collected from several papers.
Each line is one published result; not all experiments were run side by side. ± marks the error that the study gave.

Compound | test | system | conditions | concentration
O=c1[nH]c(=O)[nH]c(=O)[nH]1 | LC-MS/MS | rat CD IGS, female, pregnant, serum | oral, 1000 mg/kg/day, 10 days, range | 10800 to 314000 ng/mL
c1cc2ccc3cccc4ccc(c1)c2c34 | – | male Wistar rats, plasma | oral, 4 mg/kg, 24 h | 1.4 ± 0.2 ng/g
O=C(NCCS)c1cccc(C(=O)NCCS)c1 | – | male Sprague-Dawley rat, plasma | intravenous, 1 mg/kg, 15 min | 309 ng/mL
Nc1nc(N)nc(N)n1 | LC-MS/MS | rat, pregnant female, amniotic fluid | oral, 1000 mg/kg/day, 10 days | 472000 ng/mL
COc1ccc(C(=O)NCc2cc(C(C)C)no2)cc1OC1CCN(C)CC1 | – | male Sprague-Dawley rat, CSF | intravenous, 1 mg/kg, 15 min | 11.8 ng/g
Cc1c(P(=S)(c2ccccc2)c2ccccc2)n2ccccc2[n+]1C/C=C/c1ccccc1 | – | mouse, brain | intraperitoneal, 10 mg/kg, 8 h | 28 ng/g
C[C@H]1N=C(c2ccccc2F)c2cc(Br)ccc2-n2cnc(C(=O)O)c21 | – | Swiss Webster mice, blood | oral, 25 mg/kg, 60 min, propylene glycol 40%, HPMC 60% | 239 nM
CC(C)C[C@H](NC(=O)[C@H](CCC(=O)O)NC(=O)[C@H](CCC(=O)O)NC(=O)[C@H](CC(=O)O)NC(=O)[C@H](CCC(=O)O)NC(=O)[C@H](CCC(=O)O)NC(=O)[C@H](CCC(=O)O)NC(=O)[C@@H](N)CC(=O)O)C(=O)O | – | rat, CSF | intravenous, 11.0 mg/kg, 180 min | 2.59 ng/mL

Repeated from above:
Compound | test | system | conditions | concentration
CC(C)C[C@H](NC(=O)[C@H](CCC(=O)O)NC(=O)[C@H](CCC(=O)O)NC(=O)[C@H](CC(=O)O)NC(=O)[C@H](CCC(=O)O)NC(=O)[C@H](CCC(=O)O)NC(=O)[C@H](CCC(=O)O)NC(=O)[C@@H](N)CC(=O)O)C(=O)O | – | rat, CSF | intravenous, 11.0 mg/kg, 180 min | 2.59 ng/mL
